Results of several laboratories.
A part holds a random share of what one study measured. Positions count from the first letter of the parent shown.

Block 1
Target: Interferon regulatory factor 5, full length, phosphomimetic (IRF5, Homo sapiens, UniProt Q13568-2, residues 1-514, K96S/S451D/S453D/S456D/S462D)
Technique: protein-binding microarray
Molecule type: double-stranded DNA, one strand shown
Medium: in vitro
Concentration: 250 nM
Notes: 60-bp whole probe
With: salmon DNA 0.4 mg/ml
Reference: random background probes
Direction: higher = stronger binding
Oligonucleotide	log fluorescence
GCCTAGCACGAAGTTCTAAATATCTTTGTGTGCTAGGTCTTGATTCGCTTGACGCTGCTG	0.0703 z-score
GCCTAGCACGGAGAAAAATCATGAAAATAGTGCTAGGTCTTGATTCGCTTGACGCTGCTG	0.472 z-score
GCCTAGCACTCAATTGTGGCTTTTTAACTGTGCTAGGTCTTGATTCGCTTGACGCTGCTG	0.271 z-score
GCCTAGCACTTAGGACTGGGTTTCAGTTAGTGCTAGGTCTTGATTCGCTTGACGCTGCTG	1.61 z-score

Block 2
Target: Prothrombin, mature alpha-thrombin (F2, Homo sapiens, UniProt P00734)
Technique: aptamer microarray, sandwich
Molecule type: DNA with 2'F-ANA
Medium: in vitro
Concentration: 200 nM
Notes: whole 15-mer aptamer, many near background
With: Cy3 exosite-II aptamer, 400 nM
Direction: higher = stronger binding
Oligonucleotide	mean fluorescence intensity [a.u.]
GGTTGGTGTGGTTGG (2'F-ANA at 2 4 5 6 8 11 12 15)	112
GGTTGGTGTGGTTGG (2'F-ANA at 1 4 7 8 9 10 11 13 14 15)	48.6
GGTTGGTGTGGTTGG (2'F-ANA at 2 3 7 8 9 10 13 14)	302
GGTTGGTGTGGTTGG (2'F-ANA at 1 2 3 4 5 9 10 12 13 15)	48.3

Single results of other studies
CCNE1: CCNE1, cyclin fold, Cln2 fusion (human)
P1: SLBP docking peptide (human); ARYKRKLLINDFG
Molecule	target	assay	test system	setting	how to read	quantity	result
P1 R5L	CCNE1	yeast growth competition, sequencing	yeast	weak parent motif	reference: not given, higher = stronger binding	normalised enrichment score	1.22
PhoQ, residues 284 288 289 292 302 303 TLSLKA	PhoP, residues 12 14 15 18 19 LHTVM (Escherichia coli, UniProt P23836)	Sort-seq, refers to: YFP reporter	E. coli	PhoQ-PhoP variant library, with: 10 µM Mg2+	reference: high Mg2+ state, higher = stronger signaling	fold induction	0.587
P1 K6V	CCNE1	yeast growth competition, sequencing	yeast	weak parent motif	reference: not given, higher = stronger binding	normalised enrichment score	1.29
